Results of several laboratories.
Numbered parts are unrelated; each lists some results of a single study.

Sample 1 — technique: protein-binding microarray; form: double-stranded DNA, one strand shown; medium: in vitro; tested at: 940 nM top; setting: 60-bp whole probe; with: salmon DNA 0.4 mg/ml; baseline: random background probes; direction: higher = stronger binding
Target: Interferon regulatory factor 5, full length, phosphomimetic (IRF5, Homo sapiens, UniProt Q13568-2, residues 1-514, S451D/S453D/S456D/S462D)
| Strand | fitted relative affinity [z-score] |
| --- | --- |
| GCCTAGCACTTAGATTTCGGGTTTTGATTAGTGCTAGTCTTGATTCGCTTGACGCTGCTG | 1.53 |
| GCCTAGCACTTAGCTTTCGACTATCGGTTAGTGCTAGTCTTGATTCGCTTGACGCTGCTG | 3.26 |
| GCCTAGCACTCAGTTTTACAATTTGCACTGTGCTAGGTCTTGATTCGCTTGACGCTGCTG | 0.386 |
| GCCTAGCACTCAAGACTTGATTTTGGACTGTGCTAGGTCTTGATTCGCTTGACGCTGCTG | -0.654 |

Sample 2 — technique: RNA Bind-n-Seq; form: RNA; medium: in vitro; tested at: 365 nM; baseline: no-protein control; direction: higher = stronger binding
Target: RNA binding protein fox-1 homolog 2, RRM domain, GST-SBP tag (RBFOX2, Homo sapiens, UniProt O43251-10, residues 100-194)
Setting: natural RNA segment, single round, ends assumed
Target sequence (chain): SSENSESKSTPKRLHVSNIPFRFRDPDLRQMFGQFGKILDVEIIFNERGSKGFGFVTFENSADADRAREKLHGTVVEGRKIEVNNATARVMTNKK
| Strand | RBNS enrichment (R) |
| --- | --- |
| GGGAGUUCUACAGUCCGACGAUCUCCUCUAUCCUGGUAACUCCUCACUGUACUGAUUUACUGGUGCAUGCAAUUCUGUUAAAAAAUGUAUUCUUCUGAAUAAAGAGAAUAUUCACUAUUUAACUGCAAACCAAUGGAAUUCUCGGGUGCCAA | 1.02 |
| GGGAGUUCUACAGUCCGACGAUCAGAGAGACCUCAUCCUGCUCUUUUGUGAUGAACAUAUUCAUGAAAUGUGGAAGUCAGUACGAUCAAGUUGUUGACUGUGAUUAGAUCACAUCUUAAAUUCAUUUCUAGACUGGAAUUCUCGGGUGCCAA | 0.252 |
| GGGAGUUCUACAGUCCGACGAUCUGGCUUUGAAUGAUUACUAUUUGGUCUGUGUGCUACUAACAGAUAAUAAACGAUCACCAGGAAACUUCCUGAUGCCUUCUACUGUCUAGAGCAGCAGUUCUCAACCUUUGUGGAAUUCUCGGGUGCCAA | 0.553 |

Sample 3 — technique: protein-binding microarray; form: double-stranded DNA, one strand shown; medium: in vitro; tested at: not given; direction: higher = stronger binding
Target: Transcription factor Sp1 (SP1, Homo sapiens, UniProt P08047, residues 1-785, full length assumed)
Chain of UniProt P08047 (whole entry, looked up): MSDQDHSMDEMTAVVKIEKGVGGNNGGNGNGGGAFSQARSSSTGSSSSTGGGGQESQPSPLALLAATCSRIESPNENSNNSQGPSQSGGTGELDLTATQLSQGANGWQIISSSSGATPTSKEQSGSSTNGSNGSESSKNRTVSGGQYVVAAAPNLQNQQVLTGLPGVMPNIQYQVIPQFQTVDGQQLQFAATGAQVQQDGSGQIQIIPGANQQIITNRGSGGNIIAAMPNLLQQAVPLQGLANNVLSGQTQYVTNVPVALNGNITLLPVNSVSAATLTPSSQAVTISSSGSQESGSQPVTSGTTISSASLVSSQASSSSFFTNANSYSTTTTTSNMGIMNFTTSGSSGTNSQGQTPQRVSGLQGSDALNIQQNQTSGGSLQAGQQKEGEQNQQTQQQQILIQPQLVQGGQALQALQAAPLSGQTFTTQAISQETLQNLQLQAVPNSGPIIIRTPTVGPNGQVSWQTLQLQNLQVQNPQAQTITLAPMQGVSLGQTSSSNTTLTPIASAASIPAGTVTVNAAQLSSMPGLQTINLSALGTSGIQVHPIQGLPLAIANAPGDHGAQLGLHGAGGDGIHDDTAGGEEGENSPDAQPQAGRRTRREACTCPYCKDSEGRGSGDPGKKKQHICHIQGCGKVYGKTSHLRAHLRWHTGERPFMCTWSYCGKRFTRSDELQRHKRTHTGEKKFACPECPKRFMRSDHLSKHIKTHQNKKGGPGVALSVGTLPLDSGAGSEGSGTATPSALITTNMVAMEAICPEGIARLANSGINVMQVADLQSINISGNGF
Setting: k-mer, scored over probes, only values ≥0.25
| Strand | E-score |
| --- | --- |
| CCCCTTTC | 0.272 |
| CGCCCCCA | 0.426 |
| CAGAAATG | 0.253 |
| CCCGCCTC | 0.439 |

Single results of other studies
| Substance | target | assay | system | conditions | how to read | measurement | value |
| --- | --- | --- | --- | --- | --- | --- | --- |
| PhoQ, residues 284 288 289 292 302 303 GANMMA | PhoP, residues 12 14 15 18 19 FWNTL (Escherichia coli, UniProt P23836) | Sort-seq, item: YFP reporter | E. coli | PhoQ-PhoP variant library, with: 10 µM Mg2+ | baseline: high Mg2+ state, higher = stronger signaling | fold induction | 0.986 |

For quick reference, copied from above (sample 2):
| Strand | RBNS enrichment (R) |
| --- | --- |
| GGGAGUUCUACAGUCCGACGAUCUGGCUUUGAAUGAUUACUAUUUGGUCUGUGUGCUACUAACAGAUAAUAAACGAUCACCAGGAAACUUCCUGAUGCCUUCUACUGUCUAGAGCAGCAGUUCUCAACCUUUGUGGAAUUCUCGGGUGCCAA | 0.553 |
